Published values of several laboratories.
Parts stem from different laboratories: compare values within a part only.

Set 1
Target: RNA binding protein fox-1 homolog 2, RRM domain, GST-SBP tag (RBFOX2, Homo sapiens, UniProt O43251-10, residues 100-194)
Technique: RNA Bind-n-Seq
Form: RNA
Sample: in vitro
Tested at: 365 nM
Notes: natural RNA segment, single round, ends assumed
Relative to: no-protein control
Direction: higher = stronger binding
Measurement: RBNS enrichment (R)
All sequences stand within: GGGAGUUCUACAGUCCGACGAUC … UGGAAUUCUCGGGUGCCAA
Residues (chain): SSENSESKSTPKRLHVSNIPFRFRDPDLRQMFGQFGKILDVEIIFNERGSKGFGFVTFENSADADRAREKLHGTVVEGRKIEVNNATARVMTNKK
UUAGUUUUGAUGCUUUUCAAAUUACAUUAUUUUCCUCCCCUAUGAACAUUGUGGGGAGGGACUCUAAAUAAACCAGUUUAGGCAUUUGCUAGCUUUAGGUGCUUUUAUUG: 0.608
UACCUCACCUGUCCACGUUCACCACAGGCCACUUGAGCACGUGGCACCUAUCUGAGCUCUACUCAGUCAUGAGAGGAGGACCAUGCUGCUGUCACUUCGUUGGUCCCUUG: 0.301
AUAAUUACAGGAAGUUUUUAUUUUUAAAACUGGAUCUGGGGUAUAUUCAUUUGCCCCAUCACCUCUGUCUAAAGGCCCAAGUCCUAGGGCUGCCAUGGUCACAAGCACAC: 0.293
AUCUAAGACAGUGGAUUUUUCAAAAAGACCUUUUUUCUAUUGUUUGAGAAAAAUCAUUGUUUCUUGUGAAACUGCGUGUCUUCCCUAAAAAUAAUAAAAUUCAGAAAUGU: 0.942
UCUGUAGUGUUUGUGGGGAUAGGUUCCAUGCAAGAACACCUUCCUCCUCCAUCCCCCACUUCACCCCAUCCCAUACCAGUUCCAUCCAGGGUCUGCUUAACUGCCAAGAG: 0.995
ACUGUAAGCUUUUAAGAAAAACAAAGUUUUAAACGAAAUACUGCUCUGUCCAGAGGCUUUAAAACUGGUGCAAUUACAGCAAAAAGGGAUUCUGUAGCUUUAACUUGUAA: 0.745
UCAGCUUUGUGCAAUUUGCCUUUACCUCACCAAAAAUACCUACUUUAAUAUUUCCUCCUGUGUCCUCUGAAUGUCUGGGCGAGCUUUUGGUGAGAGGGCUGGUAUGUCAU: 0.933
CCAUCACUGGAAUUUCCCACCGCUUUGUGAGCCGUGUCGUAUGACCUAGUAAACUUUGUACCAAUUCAAAGACCCGAGUGAUGCUUAAUGGCUGGGGACGGGGGGACAGG: 0.314
UUUCUUCUUUGUAUCUCCCUCCUUCCCAGCCCACCCGGGCAGCAGACUCUGAUGGAAGGAAGGUGCCGUAGGUGGGCUUUUAGAAACUAACGGGACUGGUUUUCAAAGCA: 1.81
UCUCCAGUAUACUACAGUGGGAAUCACUGAUCUAGUUAACGGCAGCACUCUUGGAUUAAUUCAAUUGUUAUUUCUACUCUUUAACAACAGAAUAAGCCAGAUCCUUGACU: 0.267
AGCAGAGUGUGCAUGGCAAGGAAAUGAGUCACCUCCUUGGGGGAUGGUGCUGUUUUUAUGAAAACCUCUGAUCCUUGGUGUCCUUUAAUUGAUCUGUUCAACAAAUAUUU: 13.3
AGGCGGUAGCUGGUUCCCAUGCUCCAGGAUGGAGGUGGCAGCUGCCCUGCCAUCCCUUCUGUCUGCCAUGAGAGGGACUCUCUGAGUGUCGCCUGGCCCCACGUGUGGUG: 0.385

Set 2
Target: RING finger protein unkempt homolog, zinc fingers 1-6, GST-SBP tag (UNK, Homo sapiens, UniProt Q9C0B0, residues 30-357)
Chain of UniProt Q9C0B0 (30-357, looked up): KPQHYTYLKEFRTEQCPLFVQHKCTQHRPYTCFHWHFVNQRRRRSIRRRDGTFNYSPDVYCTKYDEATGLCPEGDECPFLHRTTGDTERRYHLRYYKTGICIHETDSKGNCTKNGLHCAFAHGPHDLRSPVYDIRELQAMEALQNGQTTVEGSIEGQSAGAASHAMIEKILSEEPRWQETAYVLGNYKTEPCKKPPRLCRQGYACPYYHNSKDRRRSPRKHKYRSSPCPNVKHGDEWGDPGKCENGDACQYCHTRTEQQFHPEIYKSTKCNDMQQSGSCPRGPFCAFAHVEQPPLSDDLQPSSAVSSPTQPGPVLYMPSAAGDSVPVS
Technique: RNA Bind-n-Seq
Form: RNA
Sample: in vitro
Tested at: not given
Notes: RNA with constant flanks, human-mouse chimeric sites, ends assumed
Relative to: input RNA pool
Direction: higher = stronger binding
Measurement: bound/input enrichment
All sequences stand within: GGGAGUUCUACAGUCCGACGAUC … CAACAGAGGAUUGAGCAUCA
GAUCCACAGUGGUCUGAGGAGCAACUCAUUGCUGCAAAAUUCUGUUUUGCUGGCCUUGUUAUAGGGCAGACUGAAGUGGAUAUCAUGAGUCAUGCCACACAGGCUAUUUUUGAAAUUCUG: 0.157 ratio
CCCCAAUACCAUUUGCAGGUCUGGAACUGCACUCUCUUUUUUAAAAAACAUGUAUACAUUUUAGGGCUGUAGAUUUACUUUCCUAUUUUUGUUUUUCAUUGCUGACUUUGAGCACAAGAA: 1.73 ratio
UCUUAACUUAUUCAUUUAACUUAUUUUUAUAGCUAGAUAAAUAUUGUUAGUCUUAGAGAGUAGUUCACAUUUUUUGAGAAGCAUGCCCUCCCUGUCCAUUUGUCUUAUAACAUGACCCAG: 8.32 ratio
GUAUACGGUUAUCGAGGAAAGGACUGUAGAGCGAAUGUAUACCUGCUUCCCACAGGGGAGAUAGUUUAUUUCAUUGCCUCAGUGGUAGUCCUGUUUAAUUAUGAGGAGAGGACUCAGCGA: 0.872 ratio
AUGGAAAAGGAUUCUCUGCCCCGCUUUGUGCGCUCUGAAUUUUAUAAGGAGUUAAUCAAGUAGUCAUCUGGUCAGGCUUCCAAAAGUUGCCCUGUGAGUUGAGUUACAUCCUUUGUAGCA: 0.198 ratio
UCCCUGUGCUUACUAAAAUGGCUUGUAAAGAAGUUUUUCCAAGCUGUAACCCAUGCUGUUAUUAUAGUUGCUGCAAAAUGUUCUUCCUGAUAUUGAUUUUAUUUGUUAACUGAAGGUCUC: 0.472 ratio
GAGUCGAGCAAACUUGAAACAAUUCGUUAUCUUGCAGCCUCAGUGUUCACUUGCUUGUGGCAAUAGCAUUGGGAUUUUAGGUUCUGGAAGGAGAACUGACGAUGAUGCUGCCGCUGCUGC: 0.146 ratio
GGUGGGGUGGUCAUUGCCGUUUGAGCUGCUGAUUUUCUUAUGAAUCAUUCAAAACUCUCGUGUAGGGUUGACAAUGUAAGGGGUGGGGGGAUCCAGCUUAUUCUUUUAUUUUCAAGUCCA: 0.535 ratio
CAGCUGCAGACAGAGAAGGAUGAGAAGGAGCUGUAUAAGGUACAUUUGAAGAAUACAGAAAUAGAAAAUACGAAGCUUGUGUCAGAGAUACAGACUUUAAAAAAUUUAGAUGGAAACAAA: 4.11 ratio
UGGCGCCUGCGCUCCCCACUCGUGUUUGUAUUUUUAUAAGAUGUAUAUACAUGUAUUUACAAUUGAGCUUUUGUUACAUAAUGCUGAAAUGCUACUGGAGAUUAUGAAAAAUGUUUCAAU: 0.211 ratio
GGCCUGGGACCGUCCUGGGCUAGUACAAAUAGCGGCAUGGAGGCUCAGAGAGGAAAGUUUGUUAGUGAGGCAGUGGUUAGAGGCCGUCAUGUACGGUCCUUUACUCGAUAGAUGUGUUCU: 0.74 ratio

Set 3
Target: Histone acetyltransferase KAT6A, winged helix 2, GST fusion (KAT6A, Homo sapiens, UniProt Q92794, residues 85-181)
Technique: protein binding microarray
Form: double-stranded DNA, one strand shown
Sample: in vitro
Tested at: not given
Notes: 8-mer, flanks averaged, mean of 2 arrays, mostly near background
Relative to: not given
Direction: higher = stronger binding
Measurement: E-score
Residues (chain): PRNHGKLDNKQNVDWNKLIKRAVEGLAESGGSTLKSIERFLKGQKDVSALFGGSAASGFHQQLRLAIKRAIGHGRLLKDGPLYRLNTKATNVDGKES
GCGGTCGA: 0.149
CCAGCCCA: 0.152
ACTGTACG: -0.257
GGGATTAC: -0.0952
CCAACAGG: -0.0868
AAGAGCTT: 0.114
CCCCCCTA: -0.167
ATTTCACC: 0.0203
AACAATAC: -0.0167
ACACCTGT: -0.186
AGAGGAAC: -0.129
CATTATCC: 0.0363
AATCAGGC: 0.0674
ATGGGGTG: -0.0951
CTTTAAAC: -0.0677
CGCATGAA: 0.0186
ACCGGAGA: 0.0398
CCGAGAAA: 0.0363
AACTACCC: -0.0767
GCAGGCTA: 0.0119
GCCCATAC: 0.0315
AGGTCGAT: 0.172
GTAATCGA: -0.0878
GGCCGTCA: 0.0501

Set 4
Target: Ras GTPase-activating protein-binding protein 1, RRM domain (G3BP1, Homo sapiens, UniProt Q13283)
Chain of UniProt Q13283 (whole entry, looked up): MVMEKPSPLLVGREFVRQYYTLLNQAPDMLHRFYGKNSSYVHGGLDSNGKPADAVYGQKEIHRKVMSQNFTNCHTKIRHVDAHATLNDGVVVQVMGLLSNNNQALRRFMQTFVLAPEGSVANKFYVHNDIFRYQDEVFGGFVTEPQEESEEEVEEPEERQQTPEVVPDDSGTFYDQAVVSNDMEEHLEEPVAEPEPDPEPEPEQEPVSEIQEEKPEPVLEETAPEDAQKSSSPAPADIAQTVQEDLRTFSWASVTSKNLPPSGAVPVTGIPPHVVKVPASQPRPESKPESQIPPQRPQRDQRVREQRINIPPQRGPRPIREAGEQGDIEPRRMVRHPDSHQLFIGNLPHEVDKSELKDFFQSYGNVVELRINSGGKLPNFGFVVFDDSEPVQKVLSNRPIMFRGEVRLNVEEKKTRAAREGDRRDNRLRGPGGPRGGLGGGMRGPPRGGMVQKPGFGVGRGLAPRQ
Technique: RNA Bind-n-Seq
Form: RNA
Sample: in vitro
Tested at: 1 µM
Notes: whole 134-nt RNA, ends assumed
Added: 150 mM KCl
Relative to: input library
Direction: higher = stronger binding
Measurement: log2 enrichment
All sequences stand within: GGGAGUUCUACAGUCCGACGAUC … UGGAAUUCUCGGGUGUCAAGG
CUGUGCUACACAUCGUAUGUACCGAAUCGGGAAAAAAAGGGUUUUUUUGGGAAAAAAAGGGAAAGUAUUAUGUUACGCCGUUCGGAUCUG: -0.37
GCAGGAAGUAAAAACAAAUGGAAAUGCUUCGGAUAGUGGCAGGGGUGGGGGUUGCUAAGAAAAGGGUGGGAUGGGAGUGGGUAAAGAGUU: 1.06
GUCCUGUGCUACACAUCGUAUGUACCGAAUCAAAUUUUUUUAAACCCCCAAACCCAAAAAAGUAUUAUGUUACGCCGUUCGGAUCUGCAC: -0.974
UCAAGUCCUGUGCUACACAUCGUAUGUACCGAAUCGUGUGUGUGUGUGUGUGUGAAAGUAUUAUGUUACGCCGUUCGGAUCUGCACUUCC: -0.0194
GCAGGAAGUAAAAACAAAUGGAAAUGCUUCGGAUAGUGGCAAGGGUGGGGGUUGCUAAGGAAAGGGUGGGAUGGGAGUGGGUAAAGAGUU: 1.03
CUAGAGAGCUGUAGUACACAUGGAUGAACGACGAGAAGAACAAAUUGUACAGUUACUGAAUUCUGUUCAAGCGAAGAAUGAUAAAGAGUC: 0.205
UCCUGUGCUACACAUCGUAUGUACCGAAUCGGGGUUUUUGGGGUUUUUUUGGGGAGGGGAAAGUAUUAUGUUACGCCGUUCGGAUCUGCA: 0.672
UCAAGUCCUGUGCUACACAUCGUAUGUACCGAAUCGGGGCCGGCCGGGGCCGGGAAAGUAUUAUGUUACGCCGUUCGGAUCUGCACUUCC: -0.782
UCAAGUCCUGUGCUACACAUCGUAUGUACCGAAUCGGUUUGGAAAAAAAGGAGGAAAGUAUUAUGUUACGCCGUUCGGAUCUGCACUUCC: -0.122
AAGUCCUGUGCUACACAUCGUAUGUACCGAAUCGGGGAGGGGAGGGGUUUUUGGGGAAAGUAUUAUGUUACGCCGUUCGGAUCUGCACUU: 1.01
UGUCCCAGGGAACGCCGGUGCAGAUGUGCUUCUUGUGGGCUCAGAGGCCUUCGUGCUGCUGGACGGGCAGGAGCUGACGCCUCGCUGGAC: -0.582
GCAGGAAGUAAAAACAAAUGGAAAUUCUUCGGAUAGUGGCAGGGGUGGGGGUUGCUAAGGAAAGGGUGGGAUGGGAGUGGGUAAAGAGUU: 1.17
GUCCUGUGCUACACAUCGUAUGUACCGAAUCGGGUUUUUUGGUUUUUUGGUUUUUUGGAAAGUAUUAUGUUACGCCGUUCGGAUCUGCAC: -0.133
UAACUUUAGAGGAGGAUCUGACGGAUAUGGCAGUGGACGUGGAUUUGGGGAUGGCUAUAAUGGGUAUGGAGGAGGACCUGGAGGUGGCAA: -0.862

A few entries again (set 2):
UCUUAACUUAUUCAUUUAACUUAUUUUUAUAGCUAGAUAAAUAUUGUUAGUCUUAGAGAGUAGUUCACAUUUUUUGAGAAGCAUGCCCUCCCUGUCCAUUUGUCUUAUAACAUGACCCAG: 8.32 ratio
UGGCGCCUGCGCUCCCCACUCGUGUUUGUAUUUUUAUAAGAUGUAUAUACAUGUAUUUACAAUUGAGCUUUUGUUACAUAAUGCUGAAAUGCUACUGGAGAUUAUGAAAAAUGUUUCAAU: 0.211 ratio
GGUGGGGUGGUCAUUGCCGUUUGAGCUGCUGAUUUUCUUAUGAAUCAUUCAAAACUCUCGUGUAGGGUUGACAAUGUAAGGGGUGGGGGGAUCCAGCUUAUUCUUUUAUUUUCAAGUCCA: 0.535 ratio
AUGGAAAAGGAUUCUCUGCCCCGCUUUGUGCGCUCUGAAUUUUAUAAGGAGUUAAUCAAGUAGUCAUCUGGUCAGGCUUCCAAAAGUUGCCCUGUGAGUUGAGUUACAUCCUUUGUAGCA: 0.198 ratio
GUAUACGGUUAUCGAGGAAAGGACUGUAGAGCGAAUGUAUACCUGCUUCCCACAGGGGAGAUAGUUUAUUUCAUUGCCUCAGUGGUAGUCCUGUUUAAUUAUGAGGAGAGGACUCAGCGA: 0.872 ratio
CCCCAAUACCAUUUGCAGGUCUGGAACUGCACUCUCUUUUUUAAAAAACAUGUAUACAUUUUAGGGCUGUAGAUUUACUUUCCUAUUUUUGUUUUUCAUUGCUGACUUUGAGCACAAGAA: 1.73 ratio
GAGUCGAGCAAACUUGAAACAAUUCGUUAUCUUGCAGCCUCAGUGUUCACUUGCUUGUGGCAAUAGCAUUGGGAUUUUAGGUUCUGGAAGGAGAACUGACGAUGAUGCUGCCGCUGCUGC: 0.146 ratio
